Assay results gathered from unrelated publications.
Parts stem from different laboratories: compare values within a part only.

Block 1
Target: Histone acetyltransferase KAT6A, both winged helices, GST fusion (KAT6A, Homo sapiens, UniProt Q92794, residues 1-181)
Technique: protein binding microarray
Molecule type: double-stranded DNA, one strand shown
Medium: in vitro
Tested at: not given
Setting: 8-mer, flanks averaged, mean of 2 arrays, mostly near background
Reference: not given
Direction: higher = stronger binding
Residues (chain): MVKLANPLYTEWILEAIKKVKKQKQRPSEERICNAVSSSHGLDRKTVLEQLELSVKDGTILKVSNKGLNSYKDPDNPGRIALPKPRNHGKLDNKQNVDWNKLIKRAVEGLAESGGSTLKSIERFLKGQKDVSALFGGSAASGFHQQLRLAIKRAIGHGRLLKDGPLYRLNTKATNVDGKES
`GCTGGAAA` has an E-score of -0.0122.
The E-score of `CCTCGGCC` is reported as 0.103.
For `ATTGGTTG`, the E-score was -0.177.
The E-score of `AACGGGCG` is reported as 0.241.
For `ACTTGTTC`, the E-score was -0.0391.
`CAGCTGAC` gave an E-score of 0.0821.
`GATGTAGA` gave an E-score of -0.0814.
With `GGCCCTGA` the E-score was -0.154.
`TCATTTAA` gave an E-score of -0.198.
For `CTACTCCC`, the E-score was -0.051.
The E-score of `AACTAGTG` is reported as -0.174.
`AAGATGTC` gave an E-score of -0.0867.
`TTACATAA` has an E-score of -0.0654.

Block 2
Target: Fragile X messenger ribonucleoprotein 1, C-terminal low-complexity region (Fmr1, Mus musculus, UniProt P35922)
Technique: RNA Bind-n-Seq
Molecule type: RNA
Medium: in vitro
Tested at: 200 nM
Setting: whole 134-nt RNA, ends assumed
Added: 150 mM LiCl
Reference: input library
Direction: higher = stronger binding
All molecules: 7-deaza-guanosine replaces G
Shared flanks, not repeated: GGGAGUUCUACAGUCCGACGAUC … UGGAAUUCUCGGGUGUCAAGG
`UCCUGUGCUACACAUCGUAUGUACCGAAUCGGGUUUUUGGGAAAAAAAGGGAAAAAGGGAAAGUAUUAUGUUACGCCGUUCGGAUCUGCA` has a log2 enrichment of -1.62.
`CACAGACAACACGCACCCACACAGACACAGAGGGAAGGGGAUGGGAUGGGGACAGGGUGCACAGCAGGGCGGGGUAGGACCCCAGCCCCU` has a log2 enrichment of -0.628.
`CUCAAGUCCUGUGCUACACAUCGUAUGUACCGAAUCGGCCGGCCGGGGCCGGGGAAAGUAUUAUGUUACGCCGUUCGGAUCUGCACUUCC` has a log2 enrichment of -0.339.
`CCUGUGCUACACAUCGUAUGUACCGAAUCGGGGAAAAAGGGGAAAAAGGGGAAAAAGGGGAAAGUAUUAUGUUACGCCGUUCGGAUCUGC` has a log2 enrichment of 1.08.
The log2 enrichment of `GCAGGAAGUAAAAACAAAUGGAAAUGCUUCGGUUAGUGGCAGGGGUGGGGGUUGCUAAGGAAAGGGUGGGAUGGGAGUGGGUAAAGAGUU` is reported as 1.31.
With `CUCAAGUCCUGUGCUACACAUCGUAUGUACCGAAUCGGGCCGGCCGGGCCGGGAAAGUAUUAUGUUACGCCGUUCGGAUCUGCACUUCCA` the log2 enrichment was 0.877.
`CCUCAAGUCCUGUGCUACACAUCGUAUGUACCGAAUCGGUGGUUUGGUUUGGAAAGUAUUAUGUUACGCCGUUCGGAUCUGCACUUCCAG` gave a log2 enrichment of -0.886.
The log2 enrichment of `AGUCCUGUGCUACACAUCGUAUGUACCGAAUCGGAAAAGGGGAAAAGGGGAAAAGGGAAAGUAUUAUGUUACGCCGUUCGGAUCUGCACU` is reported as -0.763.
The log2 enrichment of `UUCCCUGGUGUGAUUCCGUCCUGCGCGGUUGUUCUCUGGAGCAGCGUUCUUUUAUCUCCGUCCGCCUUCUCUCCUACCUAAGUGCGUGCC` is reported as 1.46.
With `GCAGGAAGUAGAAACAAAUGGAAAUGCUUCGGAUAGUGGCAGGGGUGGGGGUUGCUAAGGAAAGGGUGGGAUGGGAGUGGGUAAAGAGUU` the log2 enrichment was 1.96.

Block 3
Target: Sal-like protein 4, full length isoform B (SALL4, Homo sapiens, UniProt Q9UJQ4-2, residues 1-616)
Technique: universal PBM
Molecule type: double-stranded DNA, one strand shown
Medium: in vitro
Tested at: not given
Setting: 8-mer, flanks averaged, mean of replicates
Direction: higher = stronger binding
Target sequence (chain): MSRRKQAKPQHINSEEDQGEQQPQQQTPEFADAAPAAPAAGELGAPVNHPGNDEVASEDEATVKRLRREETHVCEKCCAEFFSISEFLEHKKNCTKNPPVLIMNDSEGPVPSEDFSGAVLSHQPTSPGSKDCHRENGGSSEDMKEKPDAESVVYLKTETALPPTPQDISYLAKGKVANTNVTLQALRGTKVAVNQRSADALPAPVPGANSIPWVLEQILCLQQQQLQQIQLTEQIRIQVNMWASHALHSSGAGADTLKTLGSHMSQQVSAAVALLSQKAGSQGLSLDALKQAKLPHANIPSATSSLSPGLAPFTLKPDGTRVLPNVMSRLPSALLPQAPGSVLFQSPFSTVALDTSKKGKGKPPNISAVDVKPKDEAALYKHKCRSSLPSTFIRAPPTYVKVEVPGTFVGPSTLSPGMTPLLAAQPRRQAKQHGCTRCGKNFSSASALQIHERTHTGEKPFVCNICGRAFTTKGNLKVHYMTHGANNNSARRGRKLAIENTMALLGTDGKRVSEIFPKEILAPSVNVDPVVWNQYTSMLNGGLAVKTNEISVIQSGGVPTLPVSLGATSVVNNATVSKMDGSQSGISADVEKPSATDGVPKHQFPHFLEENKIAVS
`CCACAGAA` has an E-score of 0.0302.
`CCAGTTTA` gave an E-score of 0.0322.
With `ACTCTCGA` the E-score was -0.078.
`CATGAGCA` gave an E-score of -0.0755.
`AGTCCGGC` gave an E-score of -0.278.
With `GGAACCAC` the E-score was -0.2.
The E-score of `CGTGCGAA` is reported as -0.0777.
For `CCCACGAG`, the E-score was -0.374.
The E-score of `GGATAACA` is reported as 0.0271.
With `ACCCATAC` the E-score was 0.14.
The E-score of `CCTCTCGC` is reported as -0.124.
For `TACTTATA`, the E-score was 0.305.
`ATACACGC` gave an E-score of 0.0742.
For `AGCAGGCA`, the E-score was -0.203.
`ACCACGAC` gave an E-score of -0.168.
The E-score of `AGTGTAAG` is reported as 0.101.

Single results of other studies
For `PhoQ, residues 284 288 289 292 302 303 SSYNSA`, the fold induction was 2.63 (PhoP, residues 12 14 15 18 19 QWHVF (Escherichia coli, UniProt P23836); Sort-seq, item: YFP reporter; E. coli; PhoQ-PhoP variant library, added: 10 µM Mg2+; reference: high Mg2+ state, higher = stronger signaling).

Excerpt of the above (block 3):
`AGTCCGGC` gave an E-score of -0.278.
With `GGAACCAC` the E-score was -0.2.
The E-score of `CGTGCGAA` is reported as -0.0777.
For `CCCACGAG`, the E-score was -0.374.
The E-score of `GGATAACA` is reported as 0.0271.
With `ACCCATAC` the E-score was 0.14.
